Published values collected from several papers.
Each line is one published result; not all experiments were run side by side. ± gives the spread as reported.
BCHE: Cholinesterase (BCHE, Homo sapiens, UniProt P06276)
UniProt P06276, sequence (whole entry, looked up): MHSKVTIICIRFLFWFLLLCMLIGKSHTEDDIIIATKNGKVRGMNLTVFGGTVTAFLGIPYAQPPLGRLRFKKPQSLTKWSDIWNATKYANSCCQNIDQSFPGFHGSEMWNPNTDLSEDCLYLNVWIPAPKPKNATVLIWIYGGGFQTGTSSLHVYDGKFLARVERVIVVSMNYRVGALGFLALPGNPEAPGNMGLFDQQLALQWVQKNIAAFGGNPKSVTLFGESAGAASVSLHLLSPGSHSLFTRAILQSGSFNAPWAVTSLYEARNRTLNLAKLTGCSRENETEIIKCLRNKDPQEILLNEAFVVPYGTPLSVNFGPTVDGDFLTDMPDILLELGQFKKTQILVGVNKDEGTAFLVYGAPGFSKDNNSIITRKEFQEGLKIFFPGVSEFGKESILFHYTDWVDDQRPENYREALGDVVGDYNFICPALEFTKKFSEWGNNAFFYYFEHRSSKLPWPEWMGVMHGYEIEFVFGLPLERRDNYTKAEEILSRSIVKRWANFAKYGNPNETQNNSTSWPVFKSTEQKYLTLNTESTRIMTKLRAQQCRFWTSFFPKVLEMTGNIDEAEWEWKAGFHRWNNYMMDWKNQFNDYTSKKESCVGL
UniProt Q9JMD7, sequence (whole entry, looked up): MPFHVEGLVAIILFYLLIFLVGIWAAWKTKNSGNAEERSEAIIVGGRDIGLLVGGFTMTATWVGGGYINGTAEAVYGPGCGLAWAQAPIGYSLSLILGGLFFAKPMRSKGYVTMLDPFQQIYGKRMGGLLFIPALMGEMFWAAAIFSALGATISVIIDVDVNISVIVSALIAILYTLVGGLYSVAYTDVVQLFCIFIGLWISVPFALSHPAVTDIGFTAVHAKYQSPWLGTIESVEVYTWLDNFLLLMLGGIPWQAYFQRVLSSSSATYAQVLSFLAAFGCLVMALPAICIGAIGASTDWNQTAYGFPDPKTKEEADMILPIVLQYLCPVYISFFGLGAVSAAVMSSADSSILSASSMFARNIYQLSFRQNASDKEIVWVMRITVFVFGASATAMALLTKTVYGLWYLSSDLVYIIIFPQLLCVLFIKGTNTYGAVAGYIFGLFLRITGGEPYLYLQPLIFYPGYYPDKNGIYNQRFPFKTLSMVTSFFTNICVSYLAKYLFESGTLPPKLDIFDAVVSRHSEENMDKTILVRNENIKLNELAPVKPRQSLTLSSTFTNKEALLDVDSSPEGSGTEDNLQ
UniProt O43614, sequence (whole entry, looked up): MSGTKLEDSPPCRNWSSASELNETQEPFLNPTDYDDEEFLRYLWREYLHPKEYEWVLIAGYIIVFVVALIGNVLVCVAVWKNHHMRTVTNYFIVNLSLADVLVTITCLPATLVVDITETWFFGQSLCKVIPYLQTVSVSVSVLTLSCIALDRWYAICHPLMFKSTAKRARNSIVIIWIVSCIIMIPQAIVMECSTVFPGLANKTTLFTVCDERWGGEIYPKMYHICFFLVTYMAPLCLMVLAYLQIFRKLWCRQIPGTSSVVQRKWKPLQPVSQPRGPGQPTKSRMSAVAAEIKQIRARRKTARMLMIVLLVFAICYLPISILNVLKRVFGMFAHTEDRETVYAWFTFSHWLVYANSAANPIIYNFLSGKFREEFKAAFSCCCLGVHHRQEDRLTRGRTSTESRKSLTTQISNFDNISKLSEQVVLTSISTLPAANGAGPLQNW
UniProt P08631, sequence (whole entry, looked up): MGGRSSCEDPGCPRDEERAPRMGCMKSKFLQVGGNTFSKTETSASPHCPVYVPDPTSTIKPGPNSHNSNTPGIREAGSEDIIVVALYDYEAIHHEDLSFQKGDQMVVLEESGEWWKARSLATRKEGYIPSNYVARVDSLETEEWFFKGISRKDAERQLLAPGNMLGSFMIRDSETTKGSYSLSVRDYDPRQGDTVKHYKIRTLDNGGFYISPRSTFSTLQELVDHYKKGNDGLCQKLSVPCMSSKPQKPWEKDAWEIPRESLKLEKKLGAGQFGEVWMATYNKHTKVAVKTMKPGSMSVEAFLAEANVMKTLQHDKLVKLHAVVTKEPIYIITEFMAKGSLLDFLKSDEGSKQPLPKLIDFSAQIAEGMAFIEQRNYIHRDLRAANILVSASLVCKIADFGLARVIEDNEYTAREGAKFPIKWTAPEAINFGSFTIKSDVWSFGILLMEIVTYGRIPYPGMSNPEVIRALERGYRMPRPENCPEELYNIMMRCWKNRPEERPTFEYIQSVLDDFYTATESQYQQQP
UniProt Q86SM5, sequence (whole entry, looked up): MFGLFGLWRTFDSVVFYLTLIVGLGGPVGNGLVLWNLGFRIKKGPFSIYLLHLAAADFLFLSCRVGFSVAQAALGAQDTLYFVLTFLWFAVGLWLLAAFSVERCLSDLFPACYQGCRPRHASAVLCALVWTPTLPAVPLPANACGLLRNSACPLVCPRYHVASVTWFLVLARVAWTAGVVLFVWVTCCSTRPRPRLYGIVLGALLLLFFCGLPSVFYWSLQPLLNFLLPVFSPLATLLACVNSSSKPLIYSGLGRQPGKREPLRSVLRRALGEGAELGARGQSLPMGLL
UniProt P30411, sequence (whole entry, looked up): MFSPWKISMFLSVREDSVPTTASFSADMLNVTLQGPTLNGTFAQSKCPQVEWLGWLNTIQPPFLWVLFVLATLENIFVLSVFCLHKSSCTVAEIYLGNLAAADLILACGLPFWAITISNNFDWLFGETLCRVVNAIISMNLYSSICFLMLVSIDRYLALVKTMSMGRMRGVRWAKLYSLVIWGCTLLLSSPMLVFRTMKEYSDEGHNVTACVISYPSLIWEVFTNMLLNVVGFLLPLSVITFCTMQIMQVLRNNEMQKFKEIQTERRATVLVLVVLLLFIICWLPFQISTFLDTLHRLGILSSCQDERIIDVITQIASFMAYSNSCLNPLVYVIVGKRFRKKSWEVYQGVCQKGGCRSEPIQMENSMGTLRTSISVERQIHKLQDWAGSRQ
UniProt P43681, sequence (whole entry, looked up): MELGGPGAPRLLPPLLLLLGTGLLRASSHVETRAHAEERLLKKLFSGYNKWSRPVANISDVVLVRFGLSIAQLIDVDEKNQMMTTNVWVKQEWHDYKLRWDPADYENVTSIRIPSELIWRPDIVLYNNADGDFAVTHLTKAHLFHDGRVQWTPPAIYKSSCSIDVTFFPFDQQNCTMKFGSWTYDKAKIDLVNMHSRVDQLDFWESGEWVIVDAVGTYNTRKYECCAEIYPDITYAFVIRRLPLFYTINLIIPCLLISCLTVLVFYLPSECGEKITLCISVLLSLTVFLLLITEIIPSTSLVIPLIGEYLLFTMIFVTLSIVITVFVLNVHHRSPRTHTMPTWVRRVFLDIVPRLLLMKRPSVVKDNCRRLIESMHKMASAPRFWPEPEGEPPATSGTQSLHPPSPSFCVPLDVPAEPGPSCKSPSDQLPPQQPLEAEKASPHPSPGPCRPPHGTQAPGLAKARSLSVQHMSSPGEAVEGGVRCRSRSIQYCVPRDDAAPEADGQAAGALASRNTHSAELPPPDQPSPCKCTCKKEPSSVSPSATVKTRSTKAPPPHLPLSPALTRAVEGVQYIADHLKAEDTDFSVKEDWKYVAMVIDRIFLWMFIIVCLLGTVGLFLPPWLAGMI
UniProt Q9C0E2, sequence (whole entry, looked up): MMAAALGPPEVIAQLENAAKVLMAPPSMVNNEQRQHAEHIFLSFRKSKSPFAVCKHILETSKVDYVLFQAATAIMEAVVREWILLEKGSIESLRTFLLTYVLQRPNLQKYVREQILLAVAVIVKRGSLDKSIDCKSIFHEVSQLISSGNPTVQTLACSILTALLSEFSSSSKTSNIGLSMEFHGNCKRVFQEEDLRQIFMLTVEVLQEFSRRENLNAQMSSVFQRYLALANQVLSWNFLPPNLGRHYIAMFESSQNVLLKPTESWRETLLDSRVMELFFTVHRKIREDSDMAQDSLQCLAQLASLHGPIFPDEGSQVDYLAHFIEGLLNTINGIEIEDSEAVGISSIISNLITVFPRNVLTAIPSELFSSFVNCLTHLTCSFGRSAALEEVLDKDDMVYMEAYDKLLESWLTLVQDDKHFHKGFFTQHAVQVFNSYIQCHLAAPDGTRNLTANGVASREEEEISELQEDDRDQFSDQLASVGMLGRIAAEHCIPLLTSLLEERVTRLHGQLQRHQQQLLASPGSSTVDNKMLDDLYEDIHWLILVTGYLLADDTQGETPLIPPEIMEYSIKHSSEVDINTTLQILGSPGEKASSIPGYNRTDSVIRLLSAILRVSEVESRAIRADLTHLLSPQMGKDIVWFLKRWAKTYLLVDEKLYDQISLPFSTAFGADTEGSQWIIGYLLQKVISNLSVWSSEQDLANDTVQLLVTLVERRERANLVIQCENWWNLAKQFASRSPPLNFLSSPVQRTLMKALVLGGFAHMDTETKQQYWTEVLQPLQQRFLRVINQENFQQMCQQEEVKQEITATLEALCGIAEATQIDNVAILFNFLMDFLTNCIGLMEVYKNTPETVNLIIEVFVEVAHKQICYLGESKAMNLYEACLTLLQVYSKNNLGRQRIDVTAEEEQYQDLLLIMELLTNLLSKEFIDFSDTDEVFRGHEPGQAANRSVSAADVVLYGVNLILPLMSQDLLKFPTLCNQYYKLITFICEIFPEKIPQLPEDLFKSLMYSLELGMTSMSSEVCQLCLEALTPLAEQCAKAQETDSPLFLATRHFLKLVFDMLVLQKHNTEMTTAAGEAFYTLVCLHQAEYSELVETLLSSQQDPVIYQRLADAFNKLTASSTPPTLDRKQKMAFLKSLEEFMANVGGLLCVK

`O=C(NCCN1CCC2(CC1)C(=O)NCN2c1cccc(F)c1)c1ccc(F)c(F)c1` has an efficacy of -93.2 ± 9.93% (BCHE; concentration not given, Triton).
The inhibition of `COc1ccc(N2C(=O)N(c3c(C)cccc3Cl)Cc3cnc(Nc4ccc(C5CCN(C)CC5)cc4OC)nc32)nc1` is reported as 99% (HCK (Homo sapiens, UniProt P08631); kinase activity; 0.5 µM).
With `C[C@@H](C1=C(CCN(C)C)Cc2ccccc21)c1ccccn1.O=C(O)/C=C\C(=O)O` the efficacy was -83.8 ± 8.6% (BCHE; inhibitor, fluorescence).
For `CC[C@H](C)[C@H](NC(=O)CNC(=O)[C@@H](N)CCCCN)C(=O)N[C@@H](CC(C)C)C(=O)N[C@@H](CCCCN)C(=O)N[C@@H](CCCNC(=N)N)C(=O)N[C@@H](CCC(=O)O)C(=O)N[C@@H](CCCCN)C(=O)N[C@@H](CCCNC(=N)N)C(=O)N[C@@H](CC(C)C)C(=O)N[C@@H](CCCNC(=N)N)C(=O)N[C@@H](CCCNC(=N)N)C(=O)N[C@@H](CCCCN)C(=O)N[C@@H](CC(N)=O)C(=O)N[C@H](C(=O)N[C@@H](Cc1c[nH]cn1)C(=O)N[C@@H](Cc1c[nH]c2ccccc12)C(=O)N1CCC[C@H]1C(=O)N[C@@H](CCC(=O)O)C(=O)N[C@@H](CCC(=O)O)C(=O)NCC(=O)N[C@@H](CCCCN)C(=O)N[C@@H](CC(C)C)C(=O)N[C@@H](CCCNC(=N)N)C(=O)N[C@@H](CCC(=O)O)C(=O)N[C@@H](Cc1ccccc1)C(=O)N[C@@H](Cc1ccccc1)C(=O)N[C@@H](Cc1ccccc1)C(=O)N[C@@H](Cc1ccccc1)C(=O)N[C@@H](CCC(=O)O)C(=O)N[C@@H](CC(C)C)C(=O)N[C@@H](CC(=O)O)C(=O)N[C@@H](CCC(=O)O)C(=O)N[C@@H](C)C(=O)N[C@@H](CCC(=O)O)C(=O)N[C@@H](CCCNC(=N)N)C(=O)N[C@H](C(=O)N[C@@H](CC(N)=O)C(=O)N[C@H](C(=O)O)C(C)C)C(C)C)C(C)C`, “log2 fold change” read -0.27 (HeLa and HEK-293T cells; phosphatase bead binding, competitive inhibitor, PIB pulldown iBAQ LC-MS/MS, item: STRN3; concentration not given; baseline: untreated control).
`O=C(c1ccc(Cl)cc1)N1CCN2C(=O)N(OC(=O)N3CCOc4ccccc43)C(=O)C2C1` (stereo not drawn) — result for “mean protein ratio”: 1.21 (BCHE; MS-based ABPP; SW-620 conditioned medium; 10 µM, 1 h, 37 °C; baseline: treated over control).
`O=c1nc(-c2ccccn2)sc2ccccc12` gave an efficacy of -98.1 ± 6.19% (BCHE; concentration not given, Triton).
With `O=C(Nc1cnccc1Cl)N1CCN(Cc2ccc3c(c2)OC(F)(F)O3)CC1` the inhibition was 1% (BDKRB2 (Homo sapiens, UniProt P30411); binding; 10 µM, with: [3H]bradykinin).
With `O=C(NCCCNc1nc(Nc2cccc(CN3CCOCC3)c2)ncc1C1CC1)C1CCC1` the efficacy was -90.6 ± 7.18% (BCHE; concentration not given, Triton).
`CN(C(=O)n1cnc(-c2ccc[n+]([O-])c2)c1)C1CCCCC1` has an inhibition of 17.8% (Abhydrolase domain-containing protein 11 (Rattus norvegicus, UniProt D3ZXK4); probe labelling, inhibitor, competitive ABPP with azido-FP probe, item: Abhd11; rat brain soluble fraction; 10 µM).
The efficacy of `COc1ccc2c(c1)CN(C(=O)CCN1CCC(Cc3ccccc3)CC1)CCS2.COc1ccc2c(c1)CN(C(=O)CCN1CCC(Cc3ccccc3)CC1)CCS2.O=C(O)/C=C/C(=O)O` is reported as -74.1 ± 5.71% (BCHE; concentration not given, Triton).
For `CNC1(c2ccccc2Cl)CCCCC1=O` (racemic), the inhibition was 2% (Neuronal acetylcholine receptor; alpha4/beta2 (Homo sapiens, UniProt P17787+P43681); radioligand binding, agonist, radioligand displacement; 30 µM).
`C[C@H]1CN(c2n[nH]c3nc(N[C@H]4CC[C@H](NS(=O)(=O)CCC(F)(F)F)CC4)ncc23)CCO1` gave a remaining binding of 1.26 (Exportin-4 (Homo sapiens, UniProt Q9C0E2); Kinobeads competition, item: XPO4; 0.8 µM, unit not given; baseline: vehicle).
`COC1=CC(=O)c2c(O)c3c(c(O)c2C1=O)O[C@]1(Oc2c(cc4cc(C)oc(=O)c4c2O)[C@@H](O)[C@@H]1O)[C@@H]3O` — result for “log2 fold change”: -2.35 (Staphylococcus aureus; RNA-Seq, item: nrdD; MRSA ATCC 433000; MIC, 12 h; baseline: untreated).
For `Oc1ccc2c3c1O[C@H]1[C@@H](O)CC[C@@]4(O)[C@@H](C2)N(CC2CCC2)CC[C@]314`, “log2 fold change” read 0.279 (Mas-related G-protein coupled receptor member G (MRGPRG, Homo sapiens, UniProt Q86SM5); β-arrestin recruitment, TANGO luminescence, item: MRGPRG; concentration not given; baseline: basal luminescence).
`O=C(Nc1cccnn1)N1CCC(=Cc2cccc(Oc3ccc(C(F)(F)F)cn3)c2)CC1` — result for “inhibition of binding”: 2% (High affinity choline transporter 1 (Rattus norvegicus, UniProt Q9JMD7); radioligand binding; 10 µM, rat transporter, with: [3H]hemicholinium-3).
The efficacy of `CCCN(CCC)CCc1c[nH]c2ccccc12.Cl` is reported as -83.2 ± 2.46% (BCHE; concentration not given, Triton).
`CN1CCN(c2cc(-c3ccncc3)c(-c3ccc4ccccc4c3)nn2)CC1` gave an inhibition of 32.6% (HCRTR2 (Homo sapiens, UniProt O43614); antagonist, FLIPR; 10 µM).
`CC(C)C[C@H](NC(=O)[C@H](CCC(N)=O)NC(=O)[C@H](CO)NC(=O)[C@H](CO)NC(=O)[C@H](CCCNC(=N)N)NC(=O)[C@H](CCCNC(=N)N)NC(=O)[C@H](CCCNC(=N)N)NC(=O)[C@H](CC(C)C)NC(=O)[C@H](Cc1c[nH]cn1)NC(=O)[C@@H](NC(=O)[C@H](CCCCN)NC(=O)[C@H](CCCNC(=N)N)NC(=O)[C@H](CCCNC(=N)N)NC(=O)[C@H](CCCNC(=N)N)NC(=O)[C@H](CCC(N)=O)NC(=O)[C@H](CCCNC(=N)N)NC(=O)[C@H](CCCNC(=N)N)NC(=O)[C@H](CCCCN)NC(=O)[C@H](CCCCN)NC(=O)[C@H](CCCNC(=N)N)NC(=O)CNC(=O)[C@@H](N)Cc1ccc(O)cc1)[C@@H](C)O)C(=O)N[C@@H](CCCCN)C(N)=O`: mIPSC frequency “decreased” (rat CA1 pyramidal neurons; GABAA receptor-mediated mIPSCs; concentration not given).

A few entries again:
`C[C@H]1CN(c2n[nH]c3nc(N[C@H]4CC[C@H](NS(=O)(=O)CCC(F)(F)F)CC4)ncc23)CCO1` gave a remaining binding of 1.26 (Exportin-4 (Homo sapiens, UniProt Q9C0E2); Kinobeads competition, item: XPO4; 0.8 µM, unit not given; baseline: vehicle).
`COC1=CC(=O)c2c(O)c3c(c(O)c2C1=O)O[C@]1(Oc2c(cc4cc(C)oc(=O)c4c2O)[C@@H](O)[C@@H]1O)[C@@H]3O` — result for “log2 fold change”: -2.35 (Staphylococcus aureus; RNA-Seq, item: nrdD; MRSA ATCC 433000; MIC, 12 h; baseline: untreated).
For `Oc1ccc2c3c1O[C@H]1[C@@H](O)CC[C@@]4(O)[C@@H](C2)N(CC2CCC2)CC[C@]314`, “log2 fold change” read 0.279 (Mas-related G-protein coupled receptor member G (MRGPRG, Homo sapiens, UniProt Q86SM5); β-arrestin recruitment, TANGO luminescence, item: MRGPRG; concentration not given; baseline: basal luminescence).
